Results from different studies.
Technique: steady-state kinetics
B1: UGT1A1 (Homo sapiens, UniProt P22309); chain HAGKILLIPVDGSHWLSMLGAIQQLQQRGHEIVVLAPDASLYIRDGAFYTLKTYPVPFQREDVKESFVSLGHNVFENDSFLQRVIKTYKKIKKDSAMLLSGCSHLLHNKELMASLAESSFDVMLTDPFLPCSPIVAQYLSLPTVFFLHALPCSLEFEATQCPNPFSYVPRPLSSHSDHMTFLQRVKNMLIAFSQNFLCDVVYSPYATLASEFLQREVTVQDLLSSASVWLFRSDFVKDYPRPIMPNMVFVGGINCLHQNPLSQEFEAYINASGEHGIVVFSLGSMVSEIPEKKAMAIADALGKIPQTVLWRYTGTRPSNLANNTILVKWLPQNDLLGHPMTRAFITHAGSHGVYESICNGVPMVMMPLFGDQMDNAKRMETKGAGVTLNVLEMTSEDLENALKAVINDKSYKENIMRLSSLHKDRPVEPLDLAVFWVEFVMRHKGAPHLRPAAHDLTWYQYHSLDVIGFLLAVVLTVAFITFKCCAYGYRKCLGKKGRVKKAHKSKTH
B2: HCT R356D (Coleus scutellarioides, UniProt E8ZAP2); chain MKIHVRDSTLVRPSAATPAVSLWNSNVDLVVPNFHTPSVYFYRPSGADNFFDTAVMKAALGRALVSFYPMAGRLKRDEDGRVEIDCNAEGVLFVEAESDGTVDDYGDFAPSLELRRLIPAVDYSQGISAYPLLVLQVTFFKCGGVSLGVGMQHHAADGFSGLHFINTWSDMARGLDITLPPFIDRTLLSARDPPQPQFKHVEYQPPPAMKTYEPAETVVSIFKLTKDQLTTLKAKSKEDGNTTTYSSYEMLSGHVWRCTCLARGLPEEQETKLYIATDGRSRLQPQLPPGYFGNVIFTATPLAVAGDLGSKPVWYAASKIHDALARMDNDYLRSALDFLELQPDLKALVRGAHTFDCPNLGITSWVRLPIHDADFGWGRPIFMGPGGIAYEGLSFVLPSPTNDGSLSVAISLQAEHMKLFEKLLYQI
B3: enzyme (Arabidopsis thaliana, UniProt O82390); chain MNARALLCSSNIHSLYTSNRPPEKTSSSRSLRNLKPSPKSLRVWIYPRNRSSVFRVLVRSSDKSESSNSYYVEGDKVSGNNDVVSDSPSSIVLPWWEEFPKRWVIVLLCFSAFLLCNMDRVNMSIAILPMSAEYGWNPATVGLIQSSFFWGYLLTQIAGGIWADTVGGKRVLGFGVIWWSIATILTPVAAKLGLPYLLVVRAFMGVGEGVAMPAMNNILSKWVPVQERSRSLALVYSGMYLGSVTGLAFSPFLIHQFGWPSVFYSFGSLGTVWLTLWLTKAESSPLEDPTLLPEERKLIADNCASKEPVKSIPWRLILSKPPVWALISCHFCHNWGTFILLTWMPTYYHQVLKFNLMESGLLSVFPWMTMAISANAGGWIADTLVSRGFSVTNVRKIMQTIGFLGPAFFLTQLKHIDSPTMAVLCMACSQGTDAFSQSGLYSNHQDIAPRYSGVLLGLSNTAGVLAGVLGTAATGHILQHGSWDDVFTISVGLYLVGTVIWNLFSTGEKIID
B4: UGT3A2 Y74N (Homo sapiens, UniProt Q3SY77); chain AKILTISTVGGSHYLLMDRVSQILQDHGHNVTMLNHKRGPFMPDFKKEEKSNQVISWLAPEDHQREFKKSFDFFLEETLGGRGKFENLLNVLEYLALQCSHFLNRKDIMDSLKNENFDMVIVETFDYCPFLIAEKLGKPFVAILSTSFGSLEFGLPIPLSYVPVFRSLLTDHMDFWGRVKNFLMFFSFCRRQQHMQSTFDNTIKEHFTEGSRPVLSHLLLKAELWFINSDFAFDFARPLLPNTVYVGGLMEKPIKPVPQDLENFIAKFGDSGFVLVTLGSMVNTCQNPEIFKEMNNAFAHLPQGVIWKCQCSHWPKDVHLAANVKIVDWLPQSDLLAHPSIRLFVTHGGQNSIMEAIQHGVPMVGIPLFGDQPENMVRVEAKKFGVSIQLKKLKAETLALKMKQIMEDKRYKSAAVAASVILRSHPLSPTQRLVGWIDHVLQTGGATHLKPYVFQQPWHEQYLLDVFVFLLGLTLGTLWLCGKLLGMAVWWLRGARKVKET
B5: enzyme (Halalkalibacterium halodurans, UniProt Q9KCN8); chain MLNVTQLQEATTFIQQQIETKPTIGLILGSGLGILADEIEQPVKVPYSDIPHFPVSTVQGHAGQLVIGMLEGKQVIAMQGRFHFYEGYSLEVVTFPVRVMKALGVEQIIVTNAAGGVNESFEAGDLMIIRDHINNMAQNPLIGPNDEAFGVRFPDMSNAYSERLRTLAKEKGNTLNLKLQEGVYVANTGPVYETPAEVRMIRKLGGDAVGMSTVPEVIVARHAGLEVLGISCISNMAAGILPQPLSHDEVIETTERVRQDFLNLVKAIVKDM
B6: axeA (Thermotoga maritima, UniProt Q9WXT2); chain MAFFDLPLEELKKYRPERYEEKDFDEFWEETLAESEKFPLDPVFERMESHLKTVEAYDVTFSGYRGQRIKGWLLVPKLEEEKLPCVVQYIGYNGGRGFPHDWLFWPSMGYICFVMDTRGQGSGWLKGDTPDYPEGPVDPQYPGFMTRGILDPRTYYYRRVFTDAVRAVEAAASFPQVDQERIVIAGGSQGGGIALAVSALSKKAKALLCDVPFLCHFRRAVQLVDTHPYAEITNFLKTHRDKEEIVFRTLSYFDGVNFAARAKIPALFSVGLMDNICPPSTVFAAYNYYAGPKEIRIYPYNNHEGGGSFQAVEQVKFLKKLFEKG
B7: protein (Adiantum capillus-veneris, UniProt A0A4Y6I289); chain MTDAVENKQVEFGALEVEGIKFAPSVAALGSTKQLVLGGAGFRGLEISGNLVKFTAIGIYVDEAIIPHLSPKLHGKSIEELCNNELLFEEVLAAPFEKLVRVVFLLPLTGPQYSEKVVERMGLLPNPGIKEESTKQFLEIFKPENFPPRTSLICSFTEEALKVAFMKTDDFPEDADAVIEDKWLARAFLASIIGKDGVSPLAKLSFAERMSRCL
B8: Comt (Mus musculus, UniProt O88587); chain MLLAAVSLGLLLLAFLLLLRHLGWGLVAIGWFEFVQQPVHNLLMGGTKEQRILRHVQQHAKPGDPQSVLEAIDTYCSEKEWAMNVGDAKGQIMDAVIREYRPSLVLELGAYCGYSAVRMARLLPPGARLLTMEINPDYAAITQQMLDFAGLQDKVSILIGASQDLIPQLKKKYDVDTLDMVFLDHWKDRYLPDTLLLEECGLLRKGTVLLADNVIVPGTPDFLAYVRGSSSFECTHYSSYLEYMKVVDGLEKAVYQGPGSSPVKS
B9: FMO3 E308G (Homo sapiens, UniProt P31513); chain GKKVAIIGAGVSGLASIRSCLEEGLEPTCFEKSNDIGGLWKFSDHAEEGRASIYKSVFSNSSKEMMCFPDFPFPDDFPNFMHNSKIQEYIIAFAKEKNLLKYIQFKTFVSSVNKHPDFATTGQWDVTTERDGKKESAVFDAVMVCSGHHVYPNLPKESFPGLNHFKGKCFHSRDYKEPGVFNGKRVLVVGLGNSGCDIATELSRTAEQVMISSRSGSWVMSRVWDNGYPWDMLLVTRFGTFLKNNLPTAISDWLYVKQMNARFKHENYGLMPLNGVLRKEPVFNDELPASILCGIVSVKPNVKEFTGTSAIFEDGTIFEGIDCVIFATGYSFAYPFLDESIIKSRNNEIILFKGVFPPLLEKSTIAVIGFVQSLGAAIPTVDLQSRWAAQVIKGTCTLPSMEDMMNDINEKMEKKRKWFGKSETIQTDYIVYMDELSSFIGAKPNIPWLFLTDPKLAMEVYFGPCSPYQFRLVGPGQWPGARNAILTQWDRSLKPMQTRVVGRLQKPCFFFHWLKLFAIPILLIAVFLVLT
B10: enzyme (Vitis vinifera, UniProt F6HSW4); chain MAVDSGLSSPLGPPACEKDAKALQFIEEMTRNPDQVQEKILAEILSQNGETEYLQRFKLAGATDRDTFKSKVPVVTYEDLQPDIQRIANGDRSPILSSHPISEFLTSSGTSAGERKLMPTIHEEWDRRQKLYSLLMPVMNLYVPGLDKGKGLYFLFVKSETKTPSGLVARPVLTGYYRSEHFKKRPYDPYNVYTSPDEAILCVDSFQSMYAQMLCGLLMHKEVLRVGAVFASGLLRAIRFLQVHWQQLAHDISTGILNPKITDPSVREGLAGILKPSQELADFIIQECSGGNWERIITRIWPNTKYLDVIVTGAMAQYIPTLDYFSGGIPLACTMYASSECYFGLNLKPMSKPSEVSYTIMPNMGYFEFLPHDPSAPPLSRDSPPRLVDLADVEVGKEYELVITTYAGLCRYRVGDILQVTGFHNSAPQFQFIRRKNVLLSIDSDKTDEAELQKAVENASLLLREFNTSVVEYTSFADTKTIPGHYVIYWELLVKDPSNSPTDTVLKQCCLAMEESLNTVYRQGRVADNSIGPLEIRVVKSGTFEELMDYAISRGASINQYKVPRCVNFTPIMELLDSRVLSTYFSPAAPHWTPERRRTD
B11: protein (Danio rerio, UniProt A0ACM8QCA3); chain MEVSEFNLLYKGFLLPKLAHTEESLQYLENFKVKDDDVFAVTYPKSGTTWMQNILPPLLNGGDLTPVQTVPNWDRAPWLEEIRAAVVLEERPSPRAIVSHMPYRLMPSSFYKSKAKVIYVARNPKDVIVSSYHFHKMASFLEDPGTFDDFVNKFLSGEIVFGKWSDHIKSWRNPELKDRILYVTYEEMLQDLRGVLCRMLKFLGRELSTEALDRVVSNSTFKNMKTNKMSNYTMVPQEIMDNNKSAFLRKGVAGDWKNFFSPELDAKFTAVIREEMKGTNIKFPWDEE
Chain of UniProt P00813 (whole entry, looked up): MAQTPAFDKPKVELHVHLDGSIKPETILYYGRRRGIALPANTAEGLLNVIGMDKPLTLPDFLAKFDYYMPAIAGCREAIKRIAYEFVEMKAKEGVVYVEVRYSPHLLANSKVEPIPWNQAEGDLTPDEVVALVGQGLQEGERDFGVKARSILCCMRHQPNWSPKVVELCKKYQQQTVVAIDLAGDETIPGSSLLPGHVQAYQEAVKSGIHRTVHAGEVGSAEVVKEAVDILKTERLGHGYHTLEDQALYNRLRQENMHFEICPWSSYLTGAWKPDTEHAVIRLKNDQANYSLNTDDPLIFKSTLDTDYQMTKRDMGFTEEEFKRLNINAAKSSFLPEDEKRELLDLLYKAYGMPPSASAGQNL

Substance | substrate | system | conditions | Vmax
ADA (Homo sapiens, UniProt P00813) | Nc1ncnc2c1ncn2[C@@H]1O[C@H](CO)C[C@H]1O | HEK293, cell homogenate | pH 5.8, 37 °C, not purified | 0.0458 µmol/min/mg
B1 (UGT1A1) | COc1cc2c(cc1CC=C(C)C)C(=O)C[C@@H](c1ccc(O)cc1)O2 |  | pH 7.4, 37 °C | 0.00057 µmol/min/mg
B2 (HCT R356D) | NCCc1ccc(O)c(O)c1 |  | pH 8, pseudo-first-order, added: p-coumaroyl CoA | 1.83 µmol/min/mg
B3 (enzyme) | O=P(O)(O)O |  | pH 6.5, 25 °C, apparent, not purified | 0.00548 µmol/min/mg
B4 (UGT3A2 Y74N) | O=c1ccn([C@@H]2O[C@H](CO[P@@](=O)(O)O[P@@](=O)(O)O[C@H]3O[C@H](CO)[C@@H](O)[C@H](O)[C@H]3O)[C@@H](O)[C@H]2O)c(=O)[nH]1 |  | pH 7.4, 37 °C, not purified, added: 1-OH-pyrene 16 µM, MgCl2 10 mM, alamethicin | 4.3e-05 µmol/min/mg
B5 (enzyme) | OC[C@H]1O[C@@H](n2cnc3c(O)ncnc32)[C@H](O)[C@@H]1O |  |  | 286 µmol/min
B6 (axeA) | CC(=O)Oc1ccc([N+](=O)[O-])cc1 |  | pH 6.5, 50 °C, temperature uncertain, apparent | 114 µmol/min/mg
B7 (protein) | O=C(/C=C/c1ccc(O)cc1)c1ccc(O)cc1O |  |  | 0.553 µmol/min/mg
B8 (Comt) | O=c1oc2c(O)c(O)ccc2cc1-c1nc2ccccc2s1 | MLS9 | pH 7.4, 37 °C | 0.00033 µmol/min/mg
B9 (FMO3 E308G) | CN1CCC[C@H]1c1cccnc1 | HEK293 microsomes | 37 °C, not purified, added: NADPH regenerating system | 1.3e-05 µmol/min/mg
B10 (enzyme) | O=C(O)Cc1cccc2ccccc12 |  | pH 8.6, 25 °C | 0.436 µmol/min/mg
B11 (protein) | C[C@H](CCCC(CO)CO)[C@H]1CC[C@H]2[C@@H]3[C@H](O)C[C@H]4C[C@H](O)CC[C@]4(C)[C@H]3C[C@H](O)[C@]12C |  | pH 7, 28 °C, substrate inhibition, added: PAPS 14 µM | 0.0403 µmol/min/mg

Some of these lines once more:
Substance | substrate | system | conditions | Vmax
B7 (protein) | O=C(/C=C/c1ccc(O)cc1)c1ccc(O)cc1O |  |  | 0.553 µmol/min/mg
